Experimental data of several laboratories.
“And” joins repeats or separate records; there may be more than shown. ± gives the spread as reported.

| SMILES | test | test system | setting | how to read | measurement | result |
| --- | --- | --- | --- | --- | --- | --- |
| CC(C)(c1cc(Br)c(O)c(Br)c1)c1cc(Br)c(O)c(Br)c1 |  | whole cow milk | 20 nM nominal |  | dose fraction in milk fat | 47.3% |
| CC(C)C[C@H](NC(=O)[C@@H](CCCCNC(=O)[C@@H](Cc1ccccc1)NC(=O)CCCCCCCNC(=O)CN1CCN(CC(=O)O)CCN(CC(=O)O)CCN(CC(=O)O)CC1)NC(=O)[C@H](Cc1ccc(O)cc1)NC(=O)[C@H](CO)NC(=O)[C@H](Cc1c[nH]c2ccccc12)NC(=O)[C@H](Cc1c[nH]cn1)NC(=O)[C@@H]1CCC(=O)N1)C(=O)N[C@@H](CCCNC(=N)N)C(=O)N1CCC[C@H]1C(=O)NCC(N)=O [indium-111 labelled] |  | male athymic nude mice, DU-145 prostate cancer xenograft, urine | intravenous, 0.037 MBq, 0.5 h |  | excreted dose | 59.9 ± 5.96% |
| Cc1ccc(CN2C(=O)/C(=N\c3ccc(Cl)cc3Br)c3ccccc32)cc1 |  | mouse, blood | 100 mg/kg |  | RDW | 15.8 ± 0.25% |
| COc1cnc2cccc(N3CCc4c(cc(Cn5ccnc5)cc4-c4cn(C)nc4C(F)(F)F)C3=O)c2c1 |  | male CD-1 mouse, plasma | intraperitoneal, 100 mg/kg |  | Tmax | 24 min |
| CN(C)C(=O)c1ccc(N2Cc3cn(Cc4ccc(F)cc4)nc3C2)cc1 | metabolic stability | rat, liver microsomes |  |  | half-life | 49 min |
| COCC1CN(C2CCN(c3cc(OC)c(Nc4ncc(Br)c(Nc5ccc6c(c5P(C)(C)=O)OCCO6)n4)cc3C)CC2)C1 |  | EGFR-mutant NSCLC patients | oral, 10 mg once daily |  | patients with adverse events | 100% |
| COc1cccc(OC)c1-c1cc(C(=O)NC2(C(=O)O)C3CC4CC(C3)CC2C4)nn1-c1ccc(C(=O)N(C)CCOCCOCCN(C)C(=O)[C@H](CCCCNC(=O)[C@H](CC(C)C)NC(=O)C2OC2C(=O)O)NC(=O)CN2CCN(CC(=O)[O-])CCN(CC(=O)[O-])CCN(CC(=O)[O-])CC2)cc1C(C)C.[177Lu+3] (mixture of isomers) |  | mouse HT-29 xenograft | 72 h, biodistribution | reference: tumour over pancreas | tumour-to-pancreas ratio | 21.1 |
| CN(C)C(=O)c1cccc(N2Cc3cn(Cc4cc(F)cc(F)c4)nc3C2)c1 | metabolic stability | rat, liver microsomes |  |  | half-life | 48 min |
| O=C(O)[C@H]1O[C@@H](N(Cc2ccc(C(F)(F)F)nc2)c2ccc(Cc3c[nH]c4ncc(Cl)cc34)cn2)[C@H](O)[C@@H](O)[C@@H]1O |  | human, male, plasma | oral, 400 mg of [14C]-pexidartinib single dose, as metabolite |  | AUClast | 95200 ng·h/mL |
| COC(=O)C(C)n1nc(Cn2cc3cc(OCC[18F])c(Cl)cc3n2)c2ccccc2c1=O (racemic) |  | rat, plasma | 60 min |  | parent compound | 20% |
| CCCCN1C(=O)c2cccc3c(NCCCCCN4CCOCC4)ccc(c23)C1=O |  | chloroform |  |  | emission maximum | 502 nm |
| COc1cccc(OC)c1-c1cc(C(=O)NC2(C(=O)O)C3CC4CC(C3)CC2C4)nn1-c1ccc(C(=O)NCCNC(=O)[C@H](CCCCNC(=O)[C@H](CC(C)C)NC(=O)C2OC2C(=O)O)NC(=O)CN2CCN(CC(=O)[O-])CCN(CC(=O)[O-])CCN(CC(=O)[O-])CC2)cc1C(C)C.[177Lu+3] (mixture of isomers) |  | mouse HT-29 xenograft | 168 h, biodistribution | reference: tumour over spleen | tumour-to-spleen ratio | 2.72 |
| CCCCN1C(=O)c2cccc3c(NCCCCCCN4CCOCC4)ccc(c23)C1=O |  | DMSO |  |  | emission maximum | 535 nm |
| COc1cccc(OC)c1-c1cc(C(=O)NC2(C(=O)O)C3CC4CC(C3)CC2C4)nn1-c1ccc(C(=O)N(C)CCCN(C)CCCN(C)C(=O)[C@H](CCCCNC(=O)[C@H](CC(C)C)NC(=O)C2OC2C(=O)O)NC(=O)CN2CCN(CC(=O)[O-])CCN(CC(=O)[O-])CCN(CC(=O)[O-])CC2)cc1C(C)C.[177Lu+3] (mixture of isomers) |  | mouse HT-29 xenograft | 4 h, biodistribution | reference: tumour over pancreas | tumour-to-pancreas ratio | 23.8 |
| CC(C)(O)c1ncc([S@](N)(=O)=NC(=O)Nc2c3c(cc4c2CCC4)CCC3)s1 | refers to: nervous system disorders | healthy human volunteers | oral, 100 mg single dose, spray-dried dispersion |  | subjects with adverse events | 17% |
| Cc1[nH]nc2c1N=C(c1ccccc1Cl)c1cnc(N3CCOCC3)cc1N2 |  | nude mouse, HCC1806 xenograft, tumor | oral, 15 mg/kg once daily |  | AUC(0-last) | 2900 ng·h/mL |
| CC(C)C[C@H](NC(=O)[C@H](CCCN)NC(=O)CNC(=O)[C@@H](NC(=O)[C@H](C)NC(=O)[C@@H]1CSCSC[C@H](NC(=O)CC[C@H](N)C(=O)O)C(=O)N[C@@H](CC(N)=O)C(=O)N[C@@H]([C@@H](C)O)C(=O)N[C@@H](C)C(=O)N[C@@H]([C@@H](C)O)C(=O)N1)[C@@H](C)O)C(=O)N[C@@H](C)C(=O)N[C@@H](CCC(=O)O)C(=O)N[C@@](C)(Cc1ccccc1)C(=O)N[C@@H](CC(C)C)C(=O)N[C@H](C(=O)N[C@@H](CCCNC(=N)N)C(=O)N[C@@H](CO)C(=O)N[C@@H](CO)C(=O)N[C@@H](CC(N)=O)C(=O)N(C)[C@@H](CC(N)=O)C(=O)N[C@@H](Cc1ccccc1)C(=O)NCC(=O)N1CCC[C@H]1C(=O)N[C@@H](CCCCNC(=O)CC[C@H](NC(=O)CC[C@H](NC(=O)CCCCCCCCCCCCCCCCCCC(=O)O)C(=O)O)C(=O)O)C(=O)N[C@@H](CC(C)C)C(=O)N1CCC[C@H]1C(=O)N1CCC[C@H]1C(=O)N[C@H](C(=O)N[C@@H](CCC(=O)O)C(=O)N[C@H](C(=O)NCC(=O)N[C@@H](CO)C(=O)N[C@@H](CC(N)=O)C(=O)N[C@H](C(=O)N[C@@H](Cc1ccc(O)cc1)C(N)=O)[C@@H](C)O)C(C)C)[C@@H](C)O)C(C)C |  | cynomolgus monkey, plasma | subcutaneous, 20 nmol/kg, single dose |  | AUC(0-inf) | 35 µM·h |
| Cc1ncsc1-c1ccc(CNC(=O)[C@@H]2C[C@@H](O)CN2C(=O)[C@@H](NC(=O)COCC(C)(COCCOCCOCCNC(=O)C[C@@H]2N=C(c3ccc(Cl)cc3)c3c(sc(C)c3C)-n3c(C)nnc32)COCCOCCOCCNC(=O)C[C@@H]2N=C(c3ccc(Cl)cc3)c3c(sc(C)c3C)-n3c(C)nnc32)C(C)(C)C)cc1 |  | C57BL/6 mouse male, plasma | subcutaneous, 5 mg/kg | reference: intravenous 5 mg/kg | bioavailability | 88.4% |
| O=C(Nc1cnccc1-c1ccc([18F])cc1)c1ccnc(NC(=O)C2CC2)c1 | ex vivo gamma counting | FVB/NJ mice, both sexes, brain stem | intravenous, 120 min, together with: tariquidar 15 mg/kg iv |  | mean SUV | 0.24 |
| CCCCN1C(=O)c2cccc3c(NCCCCCCCCN4CCOCC4)ccc(c23)C1=O |  | toluene |  |  | fluorescence lifetime | 8.6 ns |
| C=C(NC(=O)c1csc(-c2nc3c(cc2O)-c2nc(cs2)C(=O)NC(C(C)O)C(=O)NC(=C(C)OC)c2nc(cs2)C(=O)NC2c4nc(cs4)C(=O)NC(COC(=O)c4c5c6c(cccc6n4O)COC(=O)C(OC4CC(C)(O)C(N(C)C)C(C)O4)C2OC5)c2nc-3cs2)n1)C(N)=O (centres unmarked) |  | cynomolgus monkey, both sexes, plasma | intravenous infusion, 1.5 mg/kg twice daily, 0 to 6 h after first dose |  | AUC(0-tau) | 14700 ± 2780 ng·h/mL |

| SMILES | test | test system | setting | how to read | measurement | result |
| --- | --- | --- | --- | --- | --- | --- |
| Cc1ccc(OCC(=O)N(Cc2cccs2)c2ccn[nH]2)cc1 |  | pooled dog liver microsomes | 10 µM, 20 min | reference: time 0 | remaining compound | 47.8% |
| CC1(C)C(=CC=C2CCCC(C=CC3=[N+](CCC[N+](C)(C)C)c4ccc(S(=O)(=O)O)cc4C3(C)C)=C2SCCOCCOCCC(=O)O)N(CCC[N+](C)(C)C)c2ccc(S(=O)(=O)O)cc21 |  | HEPES buffer with FBS | pH 7.4, 50 mM HEPES, 30% FBS |  | emission maximum wavelength | 808 nm |
| CN(C)C(=O)c1ccnc(N2Cc3cn(Cc4ccc(F)cc4F)nc3C2)n1 | metabolic stability | rat, liver microsomes |  |  | half-life | 474 min |
| Cc1cnc2nc1Nc1cccc(c1)COC/C=C/COCc1cc(ccc1OCCN1CCOCC1)N2 |  | BALB/c mice, rhEPO-induced polycythemia | 100 mg/kg, day 2 |  | body weight | 19.5 g and 19.6 g and 18.3 g and 18.8 g and 17.9 g and 18.7 g |
| CC[C@H](C)[C@@H]1NC(=O)[C@H](Cc2ccc(O)cc2)NC(=O)CCCSC[C@@H](C(=O)N(CC(=O)N[C@@H](CC(C)C)C(=O)NCC(N)=O)Cc2ccc(F)cc2)NC(=O)[C@H](CC(N)=O)NC(=O)[C@H](CCC(N)=O)NC1=O |  | human | intranasal, 50 µg repeated doses |  | adverse drug reactions | 50% |
| CCCCN1C(=O)c2cccc3c(NCCCN4CCOCC4)ccc(c23)C1=O |  | ethylene glycol |  |  | emission maximum | 541 nm |
| CC1(N(CC(=O)O)CC(=O)O)CN(CC(=O)O)CCN(CC(=O)O)C1 | pH-potentiometry, refers to: logK2H | 0.15 M NaClO4 | 25 °C |  | protonation constant (log) | 6.51 |
| [123I]c1ccc2nc(-c3ccc(-n4ccnn4)nc3)cn2c1 |  | male Wistar rat, stomach | intravenous, 4 MBq, 5 min |  | tracer uptake | 0.665 %ID/g |
| CC[C@H](C)[C@@H]1NC(=O)[C@H](Cc2ccc(O)cc2)NC(=O)CCSCc2cccc(c2)CSCCNC(=O)[C@H](Cc2c[nH]cn2)NC(=O)[C@H](Cc2ccc(O)cc2)NC(=O)[C@H](CC(=O)O)NC(=O)[C@H](Cc2ccc(F)cc2)NC(=O)[C@H](CC(C)C)NC(=O)[C@H](CCCNC(=N)N)NC1=O | PAMPA |  | 200 µM, 5 h, pH 7.4 |  | membrane retention | < -0.27% |
| O=C(Nc1cnccc1-c1ccc([18F])nc1)c1ccnc(NC(=O)C2CC2)c1 | ex vivo gamma counting | FVB/NJ mice, both sexes, bone | intravenous, 120 min, mean, P-gp inhibitor pretreatment, together with: tariquidar 15 mg/kg iv |  | SUV | 0.418 |
| CCCCN1C(=O)c2cccc3c(NCCCCCCCCCCN4CCOCC4)ccc(c23)C1=O |  | chloroform |  |  | emission maximum | 511 nm |
| O=C(NS(=O)(=O)c1cccs1)c1cc2ccccc2n1Cc1ccc(Br)c2ccccc12 |  | KM mouse, chronic hyperuricaemia model | dose not given, day 26 |  | body weight | 37.6 g and 40.5 g and 38.9 g and 37.9 g and 35.6 g and 37.1 g |
| C=CC(=O)Nc1cc(Nc2nccc(-c3cn(C)c4ccccc34)n2)c(OC)cc1N(C)CCNC |  | human, dried blood spots | 72 h, -80 °C, high QC level |  | remaining compound | 90.3% |
| COc1cc2oc(-c3ccc(F)cc3)cc(=O)c2c(O)c1O | cyclic voltammetry | DMSO, 0.1 M Bu4NPF6 | 25 °C |  | half-wave potential | -1.88 V vs Ag/AgCl |
| O=C([O-])CN1CCN(CC(=O)[O-])CCN(CC(CCCc2ccccc2[N+](=O)[O-])N(CC(=O)[O-])CC(=O)[O-])CC1.[177Lu+3] (centres unmarked) |  | human serum | 14 days, pH 7.0, 37 °C |  | radionuclide release | < 0.5% |
| CCCCN1C(=O)c2cccc3c(NCCN4CCOCC4)ccc(c23)C1=O |  | methanol |  |  | emission maximum | 519 nm |
| COc1cc2ncnc(Oc3ccc(Nc4nccc5[nH]cc(-c6ccc(F)cc6)c(=O)c45)cc3F)c2cc1OC |  | male cynomolgus monkey, plasma | oral, 3 mg/kg |  | AUC(0-t) | 24500 ng·h/mL |
| C[C@]12C[C@H](c3ccc(S(C)(=O)=O)cc3)C3=C4CCC(=O)C=C4CC[C@H]3[C@@H]1CC[C@@]2(O)C(F)(F)C(F)(F)F | refers to: compound (parent) | healthy human volunteers, pooled plasma | oral, 5 mg daily, day 28, 3 h |  | plasma concentration | 27 ng/mL |
| C=C[C@]1(C)C[C@@H](OC(=O)CSc2ccc(NC(=O)c3ccco3)cc2)[C@]2(C)[C@H](C)CC[C@]3(CCC(=O)[C@H]32)[C@@H](C)[C@@H]1O |  | Mycoplasma gallisepticum-infected chickens, plasma | intramuscular, 80 mg/kg, 2 h |  | plasma concentration | 5220 ng/mL and 4330 ng/mL and 4500 ng/mL and 3880 ng/mL and 7080 ng/mL and 4080 ng/mL and 4340 ng/mL and 4760 ng/mL |
| COc1cc(-c2nc3ccccc3s2)cc(CN2CCN(Cc3cc(-c4nc5ccccc5s4)cc(OC)c3O)CCN(C(C)C)CC2)c1O | UV-vis spectrophotometric titration | aqueous NaCl 0.1 M | 20 µM, 25 °C, pH 3 to 11 |  | pKa2 | 7.06 |

Some of these lines once more:
| SMILES | test | test system | setting | how to read | measurement | result |
| --- | --- | --- | --- | --- | --- | --- |
| O=C(NS(=O)(=O)c1cccs1)c1cc2ccccc2n1Cc1ccc(Br)c2ccccc12 |  | KM mouse, chronic hyperuricaemia model | dose not given, day 26 |  | body weight | 37.6 g and 40.5 g and 38.9 g and 37.9 g and 35.6 g and 37.1 g |
| C=CC(=O)Nc1cc(Nc2nccc(-c3cn(C)c4ccccc34)n2)c(OC)cc1N(C)CCNC |  | human, dried blood spots | 72 h, -80 °C, high QC level |  | remaining compound | 90.3% |
| COc1cc2oc(-c3ccc(F)cc3)cc(=O)c2c(O)c1O | cyclic voltammetry | DMSO, 0.1 M Bu4NPF6 | 25 °C |  | half-wave potential | -1.88 V vs Ag/AgCl |
